Results pooled from the literature.
Compare with care: the assays were run in different laboratories. “And” joins repeats or separate records; there may be more than shown. Numbers after ± are the reported error.

| SMILES | tested on | test | test system | conditions | how to read | endpoint | result |
| --- | --- | --- | --- | --- | --- | --- | --- |
| COc1cc(O)c(CC=C(C)C)c(O)c1C(=O)/C=C/c1ccc(O)cc1 |  |  | male Tac:SW germ-free mice, high-fat diet | in diet, 60 mg/kg/day, 10 weeks |  | fasting plasma insulin | 1.08 ng/mL |
| N#Cc1ccc2c(c1)[C@H]1CCCN(C(=O)c3ccc4[nH]cnc4c3)[C@H]1C2 |  | refers to: androstenedione | human female, Phase II trial | oral, 240 mg once daily, last treatment, HPA axis, mean |  | plasma level | 4.64 nmol/L |
| CN(C)[C@@H]1C(O)=C(C(N)=O)C(=O)[C@@]2(O)C(O)=C3C(=O)c4c(O)cccc4[C@@](C)(O)[C@H]3C[C@@H]12 | Bacillus subtilis | bacterial cytological profiling | ATCC 6633 | concentration not given |  | DNA area | 1.06 µm² and 0.98 µm² and 1.04 µm² |
| O=C(O)CNC(=O)Cc1ccccc1 |  |  | ventricular cardiomyocytes, C57BL/6 mouse | dose not given, 0.412 s |  | sarcomere length | 1.72 µm |
| CC(Nc1nc(N2CCCC2)nc2ccccc12)c1ccccc1 (stereo not shown) | transportin-1/2 | FUS nuclear import, high content imaging | HeLa Kyoto reporter | 3.17 µM, 2 h |  | cells with nuclear reporter | 96.9% |
| NC(=O)c1cnc2[nH]ccc2c1N[C@@H]1[C@@H]2CC3C[C@H]1C[C@@](O)(C3)C2 |  | CD4+ naive T cells, flow cytometry | Caucasian humans, peripheral blood | 60 mg single dose | reference: baseline | percent change | -0.62% |
| CC1(C)S[C@@H]2[C@H](NC(=O)[C@H](N)c3ccccc3)C(=O)N2[C@H]1C(=O)O | Bacillus subtilis | bacterial cytological profiling | ATCC 6633 | concentration not given |  | cell area | 2.97 µm² and 2.98 µm² and 2.76 µm² |
| CCn1c(=O)c(-c2cc[nH]n2)cc2c(C)nc(N)nc21 | enterovirus A71 |  | suckling mouse, EV71-infected, brain | 0.25 mg/kg | direction not given | neuronal degeneration score | 1 |
| N#Cc1ccc2c(-c3ccncc3)c(-c3ccc(F)cc3)nn2c1 |  | kinase binding, competitor, MIB/MS competition, refers to: AKL1 | Candida albicans cell lysate | 100 nM | reference: DMSO | log2 fold change | 0.158 |
| O=C(O)c1cn(C2CC2)c2cc(N3CCNCC3)c(F)cc2c1=O | Bacillus subtilis | bacterial cytological profiling | ATCC 6633 | concentration not given |  | DNA area | 1.4 µm² and 1.75 µm² and 1.59 µm² |
| c1coc(-c2n[nH]cc2-c2ccnc3ccccc23)c1 | MCK1 (Candida albicans) | kinase binding, MIB/MS competition | Candida albicans lysate | 1 µM | reference: DMSO | log2 fold change | -0.1 |
| NCCCOc1cc(NC(=O)c2cccc(C(=O)Nc3cc(OCCCN)c4ccccc4n3)n2)nc2ccccc12 | c-kit1 G-quadruplex DNA | FRET melting |  | 1 µM, pH 7.4, added: 60 mM potassium |  | ΔTm | 31.8 ± 0.9 K |
| Cn1cc(-c2ccc(-c3cncc(Cl)c3N3CCC4(CCNC4=O)CC3)cc2)cn1 | COLO 205 | gene expression, microarray, refers to: HSPA5 (GRP78) mRNA |  | concentration not given, 6 h | reference: untreated cells | log2 fold change | 3.11 |
| CC(C)n1ncc2c(C(=O)NCC3(C)CNC3)cc(C3CC3)nc21 | enterovirus A71 |  | Tainan/4643/1998 | 0.3 µM |  | plaque area | 41.8% and 28.5% |
| C#Cc1cc(-c2cc(Nc3nc(N[C@@H](C)c4ccc(F)cn4)ncc3Cl)n[nH]2)ccc1C=O | PKC beta II kinase, human | enzyme activity |  | 0.2 µM |  | inhibition | -12.8% |
| Oc1ccccc1-c1n[nH]cc1-c1ccnc2ccccc12 | PKH3 (Candida albicans) | kinase binding, MIB/MS competition | Candida albicans lysate | 1 µM | reference: DMSO | log2 fold change | 0.13 |

Repeated from above:
| SMILES | tested on | test | test system | conditions | how to read | endpoint | result |
| --- | --- | --- | --- | --- | --- | --- | --- |
| c1coc(-c2n[nH]cc2-c2ccnc3ccccc23)c1 | MCK1 (Candida albicans) | kinase binding, MIB/MS competition | Candida albicans lysate | 1 µM | reference: DMSO | log2 fold change | -0.1 |
| NCCCOc1cc(NC(=O)c2cccc(C(=O)Nc3cc(OCCCN)c4ccccc4n3)n2)nc2ccccc12 | c-kit1 G-quadruplex DNA | FRET melting |  | 1 µM, pH 7.4, added: 60 mM potassium |  | ΔTm | 31.8 ± 0.9 K |
